Assay results gathered from unrelated publications.
Every numbered part comes from another study and shows a few of its results, in no order.
Chain of UniProt P07333 (whole entry, looked up): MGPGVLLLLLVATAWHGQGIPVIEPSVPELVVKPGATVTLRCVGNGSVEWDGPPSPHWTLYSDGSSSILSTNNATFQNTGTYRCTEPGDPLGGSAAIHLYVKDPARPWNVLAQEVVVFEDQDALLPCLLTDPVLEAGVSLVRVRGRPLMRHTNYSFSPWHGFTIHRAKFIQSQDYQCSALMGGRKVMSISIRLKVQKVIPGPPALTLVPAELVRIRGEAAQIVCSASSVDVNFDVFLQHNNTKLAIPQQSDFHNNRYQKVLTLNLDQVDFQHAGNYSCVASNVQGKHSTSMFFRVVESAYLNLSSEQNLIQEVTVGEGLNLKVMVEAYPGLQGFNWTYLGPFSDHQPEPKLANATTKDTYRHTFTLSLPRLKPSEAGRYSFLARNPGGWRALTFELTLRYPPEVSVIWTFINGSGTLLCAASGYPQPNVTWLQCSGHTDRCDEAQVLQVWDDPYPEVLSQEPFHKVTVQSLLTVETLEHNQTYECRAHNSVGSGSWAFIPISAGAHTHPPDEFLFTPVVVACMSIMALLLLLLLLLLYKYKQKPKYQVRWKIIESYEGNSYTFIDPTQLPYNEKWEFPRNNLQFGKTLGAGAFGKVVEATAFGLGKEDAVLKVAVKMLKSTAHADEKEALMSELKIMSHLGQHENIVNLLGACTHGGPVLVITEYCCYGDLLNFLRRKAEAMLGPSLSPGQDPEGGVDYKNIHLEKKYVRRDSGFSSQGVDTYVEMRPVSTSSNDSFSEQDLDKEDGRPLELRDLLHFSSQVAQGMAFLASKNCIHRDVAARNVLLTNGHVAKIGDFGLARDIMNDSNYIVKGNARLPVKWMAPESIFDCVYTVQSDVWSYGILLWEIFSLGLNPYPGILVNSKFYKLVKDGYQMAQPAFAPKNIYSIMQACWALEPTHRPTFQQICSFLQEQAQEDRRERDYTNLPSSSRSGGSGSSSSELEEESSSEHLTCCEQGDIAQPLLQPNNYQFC
Chain of UniProt P14616 (whole entry, looked up): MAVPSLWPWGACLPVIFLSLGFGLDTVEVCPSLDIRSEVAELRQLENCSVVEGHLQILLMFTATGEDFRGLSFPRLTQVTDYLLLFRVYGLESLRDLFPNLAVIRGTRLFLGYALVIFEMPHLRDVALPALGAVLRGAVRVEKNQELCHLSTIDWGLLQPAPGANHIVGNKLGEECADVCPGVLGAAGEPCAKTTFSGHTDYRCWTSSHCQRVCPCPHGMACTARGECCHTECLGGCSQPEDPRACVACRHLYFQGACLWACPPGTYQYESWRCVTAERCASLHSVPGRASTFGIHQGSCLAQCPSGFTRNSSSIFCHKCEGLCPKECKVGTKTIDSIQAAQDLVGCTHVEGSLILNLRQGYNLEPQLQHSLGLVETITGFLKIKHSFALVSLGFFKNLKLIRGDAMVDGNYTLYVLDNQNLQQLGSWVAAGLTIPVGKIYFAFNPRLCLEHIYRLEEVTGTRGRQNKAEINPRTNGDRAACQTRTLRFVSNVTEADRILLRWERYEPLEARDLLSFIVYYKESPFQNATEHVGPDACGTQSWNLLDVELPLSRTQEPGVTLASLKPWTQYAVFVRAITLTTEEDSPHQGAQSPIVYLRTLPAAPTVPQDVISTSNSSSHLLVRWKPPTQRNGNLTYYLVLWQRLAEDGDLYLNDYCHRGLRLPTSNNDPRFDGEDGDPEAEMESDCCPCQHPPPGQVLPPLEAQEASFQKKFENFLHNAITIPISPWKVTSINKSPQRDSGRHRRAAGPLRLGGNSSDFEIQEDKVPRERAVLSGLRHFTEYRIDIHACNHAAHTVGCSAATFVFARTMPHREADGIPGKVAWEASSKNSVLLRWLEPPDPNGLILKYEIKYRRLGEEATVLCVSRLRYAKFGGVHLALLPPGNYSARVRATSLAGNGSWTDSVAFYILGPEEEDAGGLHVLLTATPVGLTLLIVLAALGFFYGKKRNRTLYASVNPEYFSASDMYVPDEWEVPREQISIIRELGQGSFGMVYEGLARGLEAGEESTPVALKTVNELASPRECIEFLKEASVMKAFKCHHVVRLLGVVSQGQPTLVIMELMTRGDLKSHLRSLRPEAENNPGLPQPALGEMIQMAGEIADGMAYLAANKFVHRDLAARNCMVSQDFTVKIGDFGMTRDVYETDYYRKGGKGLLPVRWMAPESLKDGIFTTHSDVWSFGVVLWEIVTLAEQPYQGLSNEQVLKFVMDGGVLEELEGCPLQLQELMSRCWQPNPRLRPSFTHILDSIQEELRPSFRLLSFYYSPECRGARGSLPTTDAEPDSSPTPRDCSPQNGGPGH
Chain of UniProt Q13153 (whole entry, looked up): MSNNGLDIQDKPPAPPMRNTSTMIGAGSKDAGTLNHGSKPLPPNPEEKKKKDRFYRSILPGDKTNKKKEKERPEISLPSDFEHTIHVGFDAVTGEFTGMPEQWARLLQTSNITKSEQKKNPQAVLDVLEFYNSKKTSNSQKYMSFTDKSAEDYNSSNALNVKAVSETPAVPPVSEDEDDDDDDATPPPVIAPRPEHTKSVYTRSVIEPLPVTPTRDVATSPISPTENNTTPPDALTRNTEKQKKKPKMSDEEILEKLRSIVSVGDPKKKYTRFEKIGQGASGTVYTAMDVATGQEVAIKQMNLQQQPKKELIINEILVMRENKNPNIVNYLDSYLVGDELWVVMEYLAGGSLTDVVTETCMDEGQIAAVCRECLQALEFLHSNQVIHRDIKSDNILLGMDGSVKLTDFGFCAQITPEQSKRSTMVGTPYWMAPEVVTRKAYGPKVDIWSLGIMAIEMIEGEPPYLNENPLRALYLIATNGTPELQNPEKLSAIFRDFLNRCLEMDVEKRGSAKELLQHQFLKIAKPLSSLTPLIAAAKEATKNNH
Chain of UniProt P08588 (whole entry, looked up): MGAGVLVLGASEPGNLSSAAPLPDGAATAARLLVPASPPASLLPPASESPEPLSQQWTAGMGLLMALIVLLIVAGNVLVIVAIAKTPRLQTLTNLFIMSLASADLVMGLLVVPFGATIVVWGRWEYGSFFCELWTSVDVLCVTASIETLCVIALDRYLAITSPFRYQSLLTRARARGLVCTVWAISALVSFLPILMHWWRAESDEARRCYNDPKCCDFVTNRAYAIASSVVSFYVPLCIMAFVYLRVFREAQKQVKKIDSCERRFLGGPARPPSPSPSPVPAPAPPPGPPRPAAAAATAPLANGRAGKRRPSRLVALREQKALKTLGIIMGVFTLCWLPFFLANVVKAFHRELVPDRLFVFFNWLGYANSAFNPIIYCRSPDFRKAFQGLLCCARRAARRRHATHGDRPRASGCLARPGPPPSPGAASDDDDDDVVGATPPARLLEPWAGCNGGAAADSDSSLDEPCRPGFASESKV
Chain of UniProt Q9Y2H1 (whole entry, looked up): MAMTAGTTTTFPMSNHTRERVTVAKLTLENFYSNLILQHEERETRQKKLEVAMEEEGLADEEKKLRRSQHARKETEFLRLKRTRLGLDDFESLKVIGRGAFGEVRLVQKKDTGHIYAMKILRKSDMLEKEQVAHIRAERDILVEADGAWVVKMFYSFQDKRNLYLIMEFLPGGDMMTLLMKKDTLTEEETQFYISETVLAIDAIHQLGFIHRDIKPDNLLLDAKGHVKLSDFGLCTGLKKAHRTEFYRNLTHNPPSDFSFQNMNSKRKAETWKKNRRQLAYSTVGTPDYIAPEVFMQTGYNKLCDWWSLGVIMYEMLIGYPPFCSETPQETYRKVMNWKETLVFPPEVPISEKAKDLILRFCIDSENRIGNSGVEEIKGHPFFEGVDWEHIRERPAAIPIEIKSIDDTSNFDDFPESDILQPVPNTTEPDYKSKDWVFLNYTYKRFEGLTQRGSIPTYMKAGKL
Chain of UniProt O94921 (whole entry, looked up): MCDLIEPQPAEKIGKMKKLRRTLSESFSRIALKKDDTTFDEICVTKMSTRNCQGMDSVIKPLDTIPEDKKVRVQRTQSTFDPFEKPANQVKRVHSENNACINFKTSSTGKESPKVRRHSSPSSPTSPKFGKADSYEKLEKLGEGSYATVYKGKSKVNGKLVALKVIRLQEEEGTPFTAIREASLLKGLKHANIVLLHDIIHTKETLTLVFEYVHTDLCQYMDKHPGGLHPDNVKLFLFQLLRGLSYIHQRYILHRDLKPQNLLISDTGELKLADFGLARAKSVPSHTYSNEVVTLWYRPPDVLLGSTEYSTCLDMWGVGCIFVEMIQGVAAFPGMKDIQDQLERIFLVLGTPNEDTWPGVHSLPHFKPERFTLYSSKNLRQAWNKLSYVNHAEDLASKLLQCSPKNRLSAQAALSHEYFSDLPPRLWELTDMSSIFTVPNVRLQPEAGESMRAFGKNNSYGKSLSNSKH
Chain of UniProt P51817 (whole entry, looked up): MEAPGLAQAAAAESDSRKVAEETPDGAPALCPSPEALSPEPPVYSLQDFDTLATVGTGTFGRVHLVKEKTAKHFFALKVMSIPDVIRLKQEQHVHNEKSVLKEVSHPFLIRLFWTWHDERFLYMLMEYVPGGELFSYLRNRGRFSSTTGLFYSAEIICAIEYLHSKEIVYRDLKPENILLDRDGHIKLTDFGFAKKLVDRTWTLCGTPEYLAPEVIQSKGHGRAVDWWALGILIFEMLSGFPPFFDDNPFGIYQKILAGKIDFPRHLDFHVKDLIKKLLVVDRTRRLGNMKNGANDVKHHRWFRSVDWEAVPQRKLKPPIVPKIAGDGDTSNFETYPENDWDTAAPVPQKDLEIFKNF

Block 1 — method: competition protein-binding microarray; form: double-stranded DNA, one strand shown; medium: in vitro; tested at: 2 µM; with: Pho4 competitor, 0.05 µM; direction: higher = stronger binding; shared flanks, not repeated: … GTCTTGATTCGCTTGACGCTGCTG
Target: Centromere-binding protein 1, full length, His-tagged (CBF1, Saccharomyces cerevisiae, UniProt P17106, residues 1-351)
Chain of UniProt P17106 (whole entry, looked up): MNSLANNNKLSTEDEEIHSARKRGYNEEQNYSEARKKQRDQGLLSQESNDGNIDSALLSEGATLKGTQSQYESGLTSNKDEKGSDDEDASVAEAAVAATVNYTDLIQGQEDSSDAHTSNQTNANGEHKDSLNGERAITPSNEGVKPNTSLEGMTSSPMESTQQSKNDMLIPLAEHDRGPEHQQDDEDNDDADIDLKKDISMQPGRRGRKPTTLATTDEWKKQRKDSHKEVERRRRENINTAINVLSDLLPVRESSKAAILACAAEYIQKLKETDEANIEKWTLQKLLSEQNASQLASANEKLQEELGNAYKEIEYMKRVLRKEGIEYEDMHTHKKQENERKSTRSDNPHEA
Notes: whole 60-bp probe, lowest competitor level
Oligonucleotide	fluorescence intensity
AACTTCAGAAATTTGTCCGTGATGGTTTAATGGTCA	101 a.u.
GAGCCCGTAATCCAACACGTTTGATATTTTGTGCGA	98.7 a.u.
ACTCGAATGACGAACTACCTGATCCCCTTCTTATTG	78.6 a.u.
CGAATCCGGAAAAACTACGTGACGGGAACGATGACC	113 a.u.
CTAACGAAGGTTTACCACGTGTTTTACAAGCCAAGT	1110 a.u.
TGCAGAAGGGGACGATAATAAGACCAAATATTCTTG	65.2 a.u.
CGTCCTAGTGATTGTCACGACACTTCCATGAGGAAG	221 a.u.
AAATTACTAAGTTGAGAAGTGGGTGACGCCGTATGA	90.6 a.u.

Block 2 — method: protein-binding microarray; form: double-stranded DNA, one strand shown; medium: in vitro; tested at: not given; direction: higher = stronger binding
Target: Protein max, full length (MAX, Homo sapiens, UniProt P61244-2, residues 1-151)
Notes: k-mer, scored over probes, only values ≥0.25
Oligonucleotide	E-score
GCGTGCAC	0.434
AATGTGCT	0.287
AGGCCATG	0.259
GGCACCAC	0.255
ACATGCAG	0.344
GCGTGACA	0.423
CAGTGTGA	0.292
ATGTGATC	0.365

Block 3 — tested at: 1 µM
SMILES: O=C(O)c1cc(-c2ccc(C3CCNCC3)cc2)c2ccc(-c3ccc(C(F)(F)F)cc3)cc2c1
target	test	remaining binding [%]
Ephrin type-A receptor 1 (EPHA1, Homo sapiens, UniProt P21709)	cell-free assay, competition with immobilised ligand	100
Dual specificity protein kinase CLK2 (CLK2, Homo sapiens, UniProt P49760)	cell-free assay, competition with immobilised ligand	100
Serine/threonine-protein kinase WNK4 (WNK4, Homo sapiens, UniProt Q96J92)	cell-free assay, competition with immobilised ligand	100
Leukocyte tyrosine kinase receptor (LTK, Homo sapiens, UniProt P29376)	cell-free assay, competition with immobilised ligand	100
Serine/threonine-protein kinase SIK1 (SIK1, Homo sapiens, UniProt P57059)	competition binding	100
cAMP-dependent protein kinase catalytic subunit PRKX (PRKX, Homo sapiens, UniProt P51817)	cell-free assay, competition with immobilised ligand	100
Serine/threonine-protein kinase 38-like (STK38L, Homo sapiens, UniProt Q9Y2H1)	cell-free assay, competition with immobilised ligand	100
Receptor-type tyrosine-protein kinase FLT3 (FLT3, Homo sapiens, UniProt P36888, D835Y)	cell-free assay, competition with immobilised ligand	100
Epidermal growth factor receptor (EGFR, Homo sapiens, UniProt P00533, A750P/del747-749)	cell-free assay, competition with immobilised ligand	100
Receptor-type tyrosine-protein kinase FLT3 (FLT3, Homo sapiens, UniProt P36888, K663Q)	cell-free assay, competition with immobilised ligand	100
Macrophage colony-stimulating factor 1 receptor, autoinhibited (CSF1R, Homo sapiens, UniProt P07333)	cell-free assay, competition with immobilised ligand	85
Insulin receptor-related protein (INSRR, Homo sapiens, UniProt P14616)	cell-free assay, competition with immobilised ligand	100
Receptor-type tyrosine-protein kinase FLT3 (FLT3, Homo sapiens, UniProt P36888, D835V)	cell-free assay, competition with immobilised ligand	100
Serine/threonine-protein kinase Nek4 (NEK4, Homo sapiens, UniProt P51957)	cell-free assay, competition with immobilised ligand	100
Myosin-IIIb (MYO3B, Homo sapiens, UniProt Q8WXR4)	binding, competition with immobilised ligand	69
Receptor-type tyrosine-protein kinase FLT3 (FLT3, Homo sapiens, UniProt P36888, ITD)	cell-free assay, competition with immobilised ligand	99
Cyclin-dependent kinase 14 (CDK14, Homo sapiens, UniProt O94921)	cell-free assay, competition with immobilised ligand	100
Rho-associated protein kinase 2 (ROCK2, Homo sapiens, UniProt O75116)	cell-free assay, competition with immobilised ligand	100
Serine/threonine-protein kinase PAK 1 (PAK1, Homo sapiens, UniProt Q13153)	cell-free assay, competition with immobilised ligand	100

Block 4 — method: protein-binding microarray; form: hairpin DNA; medium: in vitro; tested at: not given; reference: not given; direction: higher = stronger binding
Target: Cyclic AMP-dependent transcription factor ATF-1, full length (ATF1, Homo sapiens, UniProt P18846, residues 1-271)
Notes: whole hairpin DNA, median over replicate spots
Target sequence (chain): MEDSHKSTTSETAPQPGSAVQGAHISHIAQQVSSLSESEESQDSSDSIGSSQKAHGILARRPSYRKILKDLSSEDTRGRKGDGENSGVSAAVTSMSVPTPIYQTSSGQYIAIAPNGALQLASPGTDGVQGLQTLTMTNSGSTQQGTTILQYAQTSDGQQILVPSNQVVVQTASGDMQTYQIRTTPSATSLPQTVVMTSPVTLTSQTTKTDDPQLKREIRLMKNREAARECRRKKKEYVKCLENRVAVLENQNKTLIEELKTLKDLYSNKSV
Oligonucleotide	median fluorescence [a.u.]
GAGGCCGGATCGCGTCAGCCTCCTGGCTGACGCGATCCGGCCTCACACTC	4260
GAGGCCGGCTGACGCGAGCCTCCTGGCTCGCGTCAGCCGGCCTCACACTC (5mC at 15 29)	5550
GAGGCCGGCTGCGGTCAGCCTCCTGGCTGACCGCAGCCGGCCTCACACTC	3520
GAGGCCGACGCGGTCGTGCCTCCTGGCACGACCGCGTCGGCCTCACACTC (5mC at 9 15 29 35)	3610
GAGGCCGACGACGTGGTGCCTCCTGGCACCACGTCGTCGGCCTCACACTC (5mC at 9 29 35)	5370
GAGGCCGCGGACGTCGTGCCTCCTGGCACGACGTCCGCGGCCTCACACTC (5mC at 8 15 29 35)	3990
GAGGCCCGATGACGTCAGCCTCCTGGCTGACGTCATCGGGCCTCACACTC	16900
GAGGCCGACGACGCGGTGCCTCCTGGCACCGCGTCGTCGGCCTCACACTC (5mC at 9 29 30 35)	4150

Mixed results
Compound	target	test	quantity	result
CC(=O)NC(Cc1ccc(I)cc1)C(=O)NCC(N)C(=O)c1ccccc1 (centres unmarked)	Beta-1 adrenergic receptor (ADRB1, Homo sapiens, UniProt P08588)	antagonist	IC50	≥ 100 µM
